Measured values of several laboratories.
Each line is one published result; not all experiments were run side by side. ± marks the error that the study gave.
Target: Cytochrome P450 3A4 (CYP3A4, Homo sapiens, UniProt P08684)
UniProt P08684, sequence (whole entry, looked up): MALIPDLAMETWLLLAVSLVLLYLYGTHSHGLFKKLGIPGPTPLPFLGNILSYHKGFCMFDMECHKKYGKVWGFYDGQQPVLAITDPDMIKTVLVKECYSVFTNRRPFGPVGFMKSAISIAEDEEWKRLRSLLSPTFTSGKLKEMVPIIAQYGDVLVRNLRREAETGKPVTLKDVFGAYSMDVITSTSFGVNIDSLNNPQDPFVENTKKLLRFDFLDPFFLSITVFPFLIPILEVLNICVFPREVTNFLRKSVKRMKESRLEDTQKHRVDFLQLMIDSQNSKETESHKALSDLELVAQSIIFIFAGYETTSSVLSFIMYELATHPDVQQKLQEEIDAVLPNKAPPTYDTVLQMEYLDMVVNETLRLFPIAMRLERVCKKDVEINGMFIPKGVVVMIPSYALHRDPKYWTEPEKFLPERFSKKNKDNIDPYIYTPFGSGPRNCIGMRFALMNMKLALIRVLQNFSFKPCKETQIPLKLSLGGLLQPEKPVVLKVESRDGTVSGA

O=C(NCCCc1cccnc1)C(Cc1ccccc1)SCC(Cc1ccccc1)NS(=O)(=O)c1ccccc1 (stereo not shown)
heme destroyed (16 µM, 2 h, together with: 10 mM H2O2; baseline: ligand-free enzyme): 26%

O=C(CS(=O)(=O)Cc1ccco1)C12CC3CC(CC(C3)C1)C2
inhibition (enzyme activity, inhibitor; 10 µM, together with: substrate BFC): 86%

CCc1nc(N)nc(N)c1C#CC(C)c1cccc(-c2cc(C)nc(C)c2)c1 (racemic)
IC50 (enzyme activity, inhibitor, fluorescence): 500 nM

CNc1c(C)n(C)n(-c2ccccc2)c1=O
N-demethylation (4-aminoantipyrine formation, substrate, recombinant supersomes; 50 µM, up to 2 h): inactive

CCc1nc(N)nc(N)c1C#C[C@H](C)c1cc(-c2cc(C)nc(C)c2)ccc1Cl
IC50 (enzyme activity, inhibitor, fluorescence): 41000 nM

O=C(CNC(=O)C(F)(F)F)NC(CSC(Cc1ccccc1)C(=O)NCCc1cccnc1)Cc1ccccc1 (stereo not shown)
IC50 (enzyme activity, inhibitor): 240 nM

COc1ccc2cc(NC(=O)c3cc(-c4ccncc4)nc4ccccc34)ccc2c1
metabolite fraction (substrate, LC-MS, measured: 5-hydroxylated naphthalene metabolite; baculosomes): ~40%

CC1CCC2(OC1)OC1CC3C4CC=C5CC(OC6OC(CO)C(OC7OC(CO)C(O)C7O)C(O)C6OC6OC(C)C(O)C(O)C6O)CCC5(C)C4CCC3(C)C1(O)C2C (stereo not shown)
remaining activity (testosterone 6β-hydroxylation; pooled human liver microsomes; 100 µM, 1 h, pH 7.4; baseline: vehicle): 17.8%

O=C(N[C@@H](Cn1ccnc1)c1ccc(F)cc1F)c1ccc(-c2nnc(-c3ccccc3)o2)cc1
IC50: 180 ± 14 nM

NS(=O)(=O)NCC(F)(F)c1ccccc1F
IC50 (enzyme activity, inhibitor): > 74000 nM

O=C(CNC(=O)C(F)(F)F)NC(CSC(Cc1ccccc1)C(=O)NCCCc1cccnc1)Cc1ccccc1 (stereo not shown)
IC50 (enzyme activity, inhibitor): 300 nM

CC(=O)OC1(C(C)=O)CCC2C3C=C(C)C4=CC(=O)C(O)CC4(C)C3CCC21C (stereo not shown)
Hill coefficient (substrate): 2 ± 0.4

CC(C)(C)OC(=O)NC(CSC(Cc1ccccc1)C(=O)NCCCc1cccnc1)CC1c2ccccc2-c2ccccc21 (mixture of isomers)
IC50 (enzyme activity, inhibitor): 1320 nM

COc1cc(OC)c(F)c(/C=C/c2cnc3ccn(S(=O)(=O)c4cn(CCF)cn4)c3n2)c1F
inhibition (enzyme activity; human liver microsomes; 10 µM, 20 min, together with: midazolam): 71%

CC(C)c1nc(CN(C)C(=O)NC(C(=O)NC(Cc2ccccc2)CC(O)C(N)Cc2ccccc2)C(C)C)cs1 (stereo not shown)
reducible fraction (ligand; concentration not given, together with: cytochrome P450 reductase): 40%

O=C(NCCCc1cccnc1)C(Cc1ccccc1)SCC(Cc1ccccc1)NC(=O)C(F)(F)F (stereo not shown)
heme destroyed (16 µM, 2 h, together with: 10 mM H2O2; baseline: ligand-free enzyme): 29%

COc1ccc2cc(NC(=O)c3cc(-c4cccnc4)nc4ccccc34)ccc2c1
kcat (substrate, measured: naphthalene-hydroxylated metabolite M1; baculosomes): 0.112 s⁻¹

CC(C)c1nc(CN(C)C(=O)NC(C(=O)NC(Cc2ccccc2)CC(O)C(Cc2ccccc2)NC(=O)OCc2cccs2)C(C)C)cs1 (stereo not shown)
high-spin heme fraction (ligand, spectral binding titration; saturating compound): ~44%

Cc1ccc(OCC(=O)N(Cc2cccs2)c2ccn[nH]2)cc1
inhibition (enzyme activity, inhibitor; human, liver microsomes; 10 µM, testosterone probe): 35%

Cc1c(NC(=O)c2ccc3c(c2)CC[C@@H]2C[C@@](O)(C(F)(F)F)CC[C@@]32Cc2ccccc2)ccc[n+]1[O-]
IC50 (enzyme activity, reversible inhibitor; pooled human liver microsomes; together with: nifedipine oxidation): > 100000 nM

CC(C)Cn1c(SCC(=O)N2CCc3ccccc3C2)nc2cc(Cl)ccc2c1=O
inhibition (enzyme activity, inhibitor, fluorescence; insect cell microsomes; 10 µM): 76%

CCc1nc(N)nc(N)c1C#CC(C)c1cc(-c2cc(C)nc(C)c2)ccc1OC (racemic)
IC50 (enzyme activity, inhibitor, fluorescence): 11000 nM

Some of these lines once more:
CC(C)c1nc(CN(C)C(=O)NC(C(=O)NC(Cc2ccccc2)CC(O)C(Cc2ccccc2)NC(=O)OCc2cccs2)C(C)C)cs1 (stereo not shown)
high-spin heme fraction (ligand, spectral binding titration; saturating compound): ~44%

Cc1ccc(OCC(=O)N(Cc2cccs2)c2ccn[nH]2)cc1
inhibition (enzyme activity, inhibitor; human, liver microsomes; 10 µM, testosterone probe): 35%

Cc1c(NC(=O)c2ccc3c(c2)CC[C@@H]2C[C@@](O)(C(F)(F)F)CC[C@@]32Cc2ccccc2)ccc[n+]1[O-]
IC50 (enzyme activity, reversible inhibitor; pooled human liver microsomes; together with: nifedipine oxidation): > 100000 nM
